{"data": "Experimental data gathered from unrelated publications", "target": "Beta-secretase 1 (BACE1, Homo sapiens, UniProt P56817)", "note": "Values joined by “and” are separate records of one study, mostly repeats; a detail may differ. ± marks the error that the study gave.", "chain of UniProt P56817 (whole entry, looked up)": "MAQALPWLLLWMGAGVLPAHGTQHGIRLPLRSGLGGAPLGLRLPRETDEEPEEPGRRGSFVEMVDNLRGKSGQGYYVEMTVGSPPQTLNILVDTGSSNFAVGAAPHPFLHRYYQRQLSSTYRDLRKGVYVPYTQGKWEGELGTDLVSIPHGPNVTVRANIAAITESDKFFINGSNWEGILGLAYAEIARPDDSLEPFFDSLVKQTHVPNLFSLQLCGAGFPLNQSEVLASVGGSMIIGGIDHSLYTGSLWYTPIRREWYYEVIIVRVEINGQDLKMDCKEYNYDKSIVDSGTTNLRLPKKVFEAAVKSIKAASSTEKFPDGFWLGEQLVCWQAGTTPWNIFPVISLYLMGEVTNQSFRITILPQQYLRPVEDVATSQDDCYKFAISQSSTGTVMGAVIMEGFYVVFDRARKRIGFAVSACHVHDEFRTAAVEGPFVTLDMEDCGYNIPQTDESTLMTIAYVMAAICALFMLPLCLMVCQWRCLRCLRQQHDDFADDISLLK"}
{"Compound": "CC[C@H](C)[C@H](NC(=O)[C@@H](C[C@H](O)[C@@H](N)COc1cccc(OCCCOC)c1)OC)C(=O)NCc1ccc(Cl)cc1", "test": "enzyme activity, inhibitor", "setting": "pH 4.5", "quantity": "IC50", "value": "> 10000 nM"}
{"Compound": "Cc1cc(C(=O)N[C@@H](Cc2ccccc2)[C@H](O)CN[C@H](C(=O)NCC(C)C)[C@H](C)O)cc(C(=O)N(C)[C@H](C)c2ccccc2)c1", "quantity": "Ki", "value": "1660 ± 44.6 nM"}
{"Compound": "COc1cc(OC)c2c(O)c3c(=O)cc(C)oc3c(-c3c(OC)cc4cc5c(c(O)c4c3OC)C(=O)CC(C)(O)O5)c2c1 (centres unmarked)", "test": "enzyme activity, inhibitor, FRET", "quantity": "IC50", "value": "72800 nM"}
{"Compound": "CC[C@H](C)[C@H](NC(=O)[C@H](Cc1ccccc1)C[C@H](O)[C@@H](N)COc1ccc(-c2ccc(F)cc2)c(OCCCOC)c1)C(=O)NCc1ccc(Cl)cc1", "test": "enzyme activity, inhibitor", "setting": "pH 4.5", "quantity": "IC50", "value": "470 nM"}
{"Compound": "COC(=O)C1CCCN1C(=O)C(Cc1ccccc1)N(C)C(=O)CC(O)C(CC(C)C)NC(=O)C(CC(C)C)N(C)C(=O)C(CC(C)C)NC(=O)C(O)C(C)C (centres unmarked)", "test": "enzyme activity, inhibitor", "setting": "pH 4.0, together with: fluorogenic peptide substrate", "quantity": "IC50", "value": "> 100000 nM"}
{"Compound": "CCC[C@H](O)[C@H](NC[C@@H](O)[C@H](Cc1ccccc1)NC(=O)c1cc(C)cc(C(=O)N(C)[C@H](C)c2ccccc2)c1)C(=O)NCC(C)C", "quantity": "Ki", "value": "563 nM and 564 nM"}
{"Compound": "COc1cc(OC)c2c(c1)c(-c1c(O)cc3cc4oc(C)cc(=O)c4c(O)c3c1OC)c(O)c1c(=O)cc(C)oc12", "test": "enzyme activity, inhibitor, FRET", "quantity": "IC50", "value": "70000 nM"}
{"Compound": "CO[C@H](C[C@H](O)[C@H](COc1cccc(OCc2ccccc2)c1)NC(=O)c1cccc(N(C)S(C)(=O)=O)c1)C(=O)N[C@H](C(=O)NCc1ccccc1)C(C)C", "test": "enzyme activity, inhibitor", "setting": "pH 4.5", "quantity": "IC50", "value": "2200 nM"}
{"Compound": "COc1cc(OC)c2c(O)c3c(cc2c1)OC(C)(O)CC3=O (centres unmarked)", "test": "enzyme activity, inhibitor, FRET", "quantity": "IC50", "value": "> 100000 nM"}
{"Compound": "CC(C)=CCN=C(N)NCCC[C@@H](NC(=O)CCCc1ccc(O)cc1)C(=O)N[C@@H](Cc1ccccc1)C(O)CC(=O)N[C@@H](Cc1ccc(O)cc1)C(=O)O (stereo in doubt)", "test": "enzyme activity, inhibitor", "quantity": "IC50", "value": "> 100000 nM"}
{"Compound": "CC(C)CNC(=O)[C@@H](NC[C@@H](O)[C@H](Cc1ccccc1)NC(=O)c1cc(C(=O)N(C)[C@H](C)c2ccccc2)cc(N(C)S(C)(=O)=O)c1)[C@H](C)O", "quantity": "Ki", "value": "1810 ± 194 nM"}
{"note": "A few entries again:"}
{"Compound": "CCC[C@H](O)[C@H](NC[C@@H](O)[C@H](Cc1ccccc1)NC(=O)c1cc(C)cc(C(=O)N(C)[C@H](C)c2ccccc2)c1)C(=O)NCC(C)C", "quantity": "Ki", "value": "563 nM and 564 nM"}
{"Compound": "COc1cc(OC)c2c(c1)c(-c1c(O)cc3cc4oc(C)cc(=O)c4c(O)c3c1OC)c(O)c1c(=O)cc(C)oc12", "test": "enzyme activity, inhibitor, FRET", "quantity": "IC50", "value": "70000 nM"}
